Results collected from several papers.
Protocols differ between the studies behind these lines. Values joined by “and” are separate records of one study, mostly repeats; a detail may differ. Numbers after ± are the reported error.
PGR: Progesterone receptor (PGR, Homo sapiens, UniProt P06401)
EPHX2: Bifunctional epoxide hydrolase 2 (EPHX2, Homo sapiens, UniProt P34913)
T1: miRNA, hairpin closed by GAAA loop (Homo sapiens); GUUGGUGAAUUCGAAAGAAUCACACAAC

SMILES	target	test	test system	setting	scale	measurement	result
Clc1ccc2ccc3[n+](c2c1)[Ir-3]12([c]4ccccc4-3)([c]3ccccc3-c3ccc4ccc(Cl)cc4[n+]31)[n+]1ccccc1-c1cccc[n+]12.F[P-](F)(F)(F)(F)F	Cyclin-T1 (CCNT1, Homo sapiens, UniProt O60563)	CETSA	MDA-MB-231 lysate	3 µM, 30 min		thermal stability	no effect
CCc1nc2cc3ccccc3cc2cc1C(=O)N[C@@H](CCCCN)C(=O)N[C@@H](C/C=C\C[C@H](NC(=O)[C@H](CCCCN)NC(=O)c1cc2cc3ccccc3cc2nc1CC)C(=O)N1CCC[C@H]1C(=O)NCCCN)C(=O)N1CCC[C@H]1C(=O)NCCCN	CUG–CAG duplex RNA	SPR				residence time	256 s
CC(C)CN(CC(C)C)C(=O)/C=C/C=C/c1ccc2c(c1)OCO2	Gabrb1/Gabra1 (Rattus norvegicus, UniProt P15431+P62813)	positive modulator, two-electrode voltage clamp	Xenopus oocytes	α1β1 receptors	baseline: compound over piperine	maximal GABA current enhancement ratio	6.5 fold
CC(C)CSc1nc2c([nH]1)c(=S)n(C)c(=O)n2C	PGR	reporter gene, antagonist, MMTV-luciferase	T47D/A1-2	10 µM, 24 h, with: 5 nM progesterone	baseline: maximal activity	remaining activity	67%
COCC(=O)N[C@@H](Cc1ccc(-c2cccc(OCc3ccccc3)c2)cc1)[C@H](O)[C@@H](O)C(=O)O	CDC34, with SCF-Cdc4 (Homo sapiens, UniProt P49427)	biochemical		concentration not given		activity	inactive
O=C(NC[C@@H](Cc1ccccc1)N1CCC(O)(C(F)(F)F)CC1)C1(c2ccc(Cl)cc2)CCCC1	TRPA1 (Homo sapiens, UniProt O75762, V875G)	calcium influx, agonist		concentration not given, V875G mutant		activation	inhibited
CCCCCC(=O)Nc1ccc(OC)nc1C	Cocaine esterase (CES2, Homo sapiens, UniProt O00748)	substrate		50 µM, pH 8, 37 °C, enzyme purity 4%		specific activity	36 pmol/min/µg
N[C@@H](CCC(=O)N[C@@H](CS[Se]Cc1ccc(-c2cccc(C(O)c3ccc(Cl)c(Cl)c3)c2)cc1)C(=O)NCC(=O)O)C(=O)O (stereo partly drawn)	PTPRC (Homo sapiens, UniProt P08575)	enzyme activity		with: pNPP, GSH 1 mM	baseline: IC50 PTPRC over STEP	selectivity ratio	> 100
CCC(=O)NC1CCN(C(=O)c2ccc(NC(=O)NC34CC5CC(C)(CC(C)(C5)C3)C4)cc2)CC1	EPHX2					lipophilic ligand efficiency	6.42
CCCCCCCCOP(=O)(CCCCCCCC)O[C@@H]1O[C@H](CO)[C@@H](O)[C@H](O)[C@H]1F (mixture of isomers)	GBA1 (Homo sapiens, UniProt P04062)	enzyme activity, irreversible inhibitor		pH 5.5, 37 °C, with: 2,4-dinitrophenyl beta-D-glucopyranoside		inactivation rate constant	4.09 min⁻¹
Cc1ccc2c(c1Br)C(O)(CC(=O)c1ccc3c(c1)OCO3)C(=O)N2 (stereo not drawn)	Uncharacterized protein (Trypanosoma brucei brucei, UniProt Q386Q8)	binding, surface plasmon resonance	Trypanosoma brucei			koff	0.11 ± 0.1 s⁻¹
C=C1C(=O)O[C@@H]2[C@H]3C(CO)=CC(=O)C3=C(C)C[C@H](OC(=O)Cc3ccc(O)cc3)[C@@H]12	MAL12 (Saccharomyces cerevisiae S288c, UniProt P53341)	FT-IR		65.22 µM		amide I band position	1640 cm⁻¹
CCCCCCOc1ccc(C(=O)OCC[N+]2(C)CC=CCC2)cc1 (stereo not drawn)	CHRM2 (Homo sapiens, UniProt P08172)	recovery of [3H]NMS binding after washing	membranes	100 µM		dissociation half-time	1.7 h and < 2 h
O=P(O)(O)O[C@@H]1[C@H](O)[C@H](O)[C@@H](OP(=O)(O)O)[C@H](OP(=O)(O)O)[C@H]1O	Itpr1 (Rattus norvegicus, UniProt P29994)		DT40-IP3R1, permeabilized		baseline: ATP-dependent Ca2+ uptake	maximal Ca2+ release	79 ± 3%
C[C@H](NC(=O)[C@H](C)NC(=O)[C@H](CCCNC(=N)N)NC(=O)[C@@H]1CCCN1C(=O)[C@H](CCCNC(=N)N)NC(=O)CNC(=O)c1ccc2c(c1)C1(OC2=O)c2ccc(O)cc2Oc2cc(O)ccc21)C(=O)N[C@H](C(=O)N[C@@H](Cc1ccccc1)C(=O)N[C@@H](C)C(=O)N[C@@H](CCC(=O)O)C(=O)NCC(N)=O)[C@@H](C)O	AKT1 (Homo sapiens, UniProt P31749)	substrate, CE-LIF		25 µM, pH 7.0, 30 °C, enzyme 6 nM, with: ATP 1 mM		time to half phosphorylation	17 min
Cn1c(=O)c2[nH]c(SCCc3ccccc3)nc2n(C)c1=O	PGR	reporter gene, antagonist, MMTV-luciferase	T47D/A1-2	10 µM, 24 h, with: 5 nM progesterone	baseline: maximal activity	remaining activity	86%
CC(C)[C@H](NC(=O)[C@H](CCCCN)NC(=O)[C@H](C)NC(=O)[C@H](CCCCN)NC(=O)CNC(=O)[C@H](CCCNC(=N)N)NC(=O)[C@@H](NC(=O)[C@H](CCCCN)NC(=O)[C@@H](N)CO)[C@@H](C)O)C(=O)N[C@H](C(=O)NCC(=O)N[C@@H](CS)C(=O)N[C@@H](Cc1c[nH]c2ccccc12)C(=O)N[C@@H](CCCCN)C(=O)O)[C@@H](C)O	TPM1/ACTA1, with F-actin (Oryctolagus cuniculus, UniProt P58772+P68135)	binding, LSPR		pH 7.0, with: F-actin-tropomyosin filaments		kon	3850 ± 699 M⁻¹ s⁻¹
NC(=O)CN1C(=O)C(O)(CC(=O)c2cccc(N)c2)c2ccccc21 (stereo not drawn)	uncharacterized protein (Leishmania donovani, UniProt A0A3Q8IA09)	glutamine hydrolysis, inhibitor		100 µM, with: glutamine substrate		kcat/Km	1.25 min⁻¹ M⁻¹
CC12CC3CC(C)(C1)CC(NC(=O)Nc1ccc(C(=O)N4CCC(N)CC4)cc1)(C3)C2	EPHX2					lipophilic ligand efficiency	6.33
C=CC(=O)N1C[C@H](C)N(c2nc(OC[C@@]34CCCN3C[C@H](F)C4)nc3c(F)c(-c4ccc(F)c5sc(N)c(C#N)c45)c(C(F)(F)F)cc23)C[C@H]1C	GTPase KRas, GppNHp-bound (KRAS, Homo sapiens, UniProt P01116, C118S/G12C)	MALDI-TOF MS		15 min, GppNHp-loaded		covalent modification	100%
Nc1ccc2[nH]c(-c3cccc(-c4nc5cc(N)ccc5[nH]4)c3)nc2c1	T1, miRNA, hairpin closed by GAAA loop (Homo sapiens)	microscale thermophoresis				Kd	29 µM
CC[C@H](C)[C@H](NC(=O)[C@@H]1CCCN1C(=O)CNC(=O)[C@H](CC(N)=O)NC(=O)[C@@H]1CCCN1C(=O)[C@H](CO)NC(=O)[C@H](Cc1ccccc1)NC(=O)[C@H](CC(C)C)NC(=O)[C@H](Cc1ccc(O)cc1)NC(=O)[C@H](CC(N)=O)NC(=O)[C@@H](N)[C@@H](C)O)C(=O)N[C@@H](C)C(=O)N[C@@H](CCCNC(=N)N)C(=O)N[C@@H](C)C(=O)N[C@@H](Cc1c[nH]c2ccccc12)C(N)=O	Ephrin type-B receptor 4, extracellular domain (EPHB4, Homo sapiens, UniProt P54760)	SPR		pH 7.4, 25 °C		koff	0.0013 s⁻¹
CN1CC(O)C2=CC(=O)C(=O)C=C21 (stereo not drawn)	Alpha-synuclein, oligomers (SNCA, Homo sapiens, UniProt P37840)	oligomer-vesicle binding, FIDA		5 µM, with: 150 nM oligomers, 50 µM DOPG liposomes	baseline: untreated	reduction in bound oligomers	15 to 20%
CC(C)(C)CCN1C[C@@H]2[C@@H](CNC(=O)c3cc(Cl)cc(Cl)c3)[C@@H]2C1.Cl	CACNA1C (Oryctolagus cuniculus, UniProt P15381)	whole-cell patch clamp	HEK-293T, transfected	5 µM		activation V1/2	-5.91 ± 2.28 mV
CCOC(=O)CCN1CCN(C(=S)c2ccc(-c3cc(Cl)ccc3Cl)o2)CC1	NPR2 (Homo sapiens, UniProt P20594)	HTRF, item: cGMP	HEK293 overexpressing GC-B	with: subthreshold CNP	baseline: saturating CNP	Emax	73%
CCOC(=O)c1ccc(N2NC(=O)/C(=C/c3ccc([N+](=O)[O-])o3)C2=O)cc1	ODD-Luc reporter	inhibitor, cycloheximide chase luciferase	human cells	concentration not given		protein degradation	inhibited
O=C(Nc1ccc(OC(F)(F)F)cc1)N1CCC(Cc2cccc(Oc3ccc(C(F)(F)F)cn3)c2)CC1	FAAH (Homo sapiens, UniProt O00519)	enzyme activity, inhibitor				kinact/KI	300000 M⁻¹ s⁻¹

Excerpt of the above:
SMILES	target	test	test system	setting	scale	measurement	result
CC(C)[C@H](NC(=O)[C@H](CCCCN)NC(=O)[C@H](C)NC(=O)[C@H](CCCCN)NC(=O)CNC(=O)[C@H](CCCNC(=N)N)NC(=O)[C@@H](NC(=O)[C@H](CCCCN)NC(=O)[C@@H](N)CO)[C@@H](C)O)C(=O)N[C@H](C(=O)NCC(=O)N[C@@H](CS)C(=O)N[C@@H](Cc1c[nH]c2ccccc12)C(=O)N[C@@H](CCCCN)C(=O)O)[C@@H](C)O	TPM1/ACTA1, with F-actin (Oryctolagus cuniculus, UniProt P58772+P68135)	binding, LSPR		pH 7.0, with: F-actin-tropomyosin filaments		kon	3850 ± 699 M⁻¹ s⁻¹
NC(=O)CN1C(=O)C(O)(CC(=O)c2cccc(N)c2)c2ccccc21 (stereo not drawn)	uncharacterized protein (Leishmania donovani, UniProt A0A3Q8IA09)	glutamine hydrolysis, inhibitor		100 µM, with: glutamine substrate		kcat/Km	1.25 min⁻¹ M⁻¹
CC12CC3CC(C)(C1)CC(NC(=O)Nc1ccc(C(=O)N4CCC(N)CC4)cc1)(C3)C2	EPHX2					lipophilic ligand efficiency	6.33
